Results of several laboratories.
Compare with care: the assays were run in different laboratories. ± gives the spread as reported.
Target: Proteasome Macropain subunit MB1 (PSMB5, Homo sapiens, UniProt P28074)
UniProt P28074, sequence (whole entry, looked up): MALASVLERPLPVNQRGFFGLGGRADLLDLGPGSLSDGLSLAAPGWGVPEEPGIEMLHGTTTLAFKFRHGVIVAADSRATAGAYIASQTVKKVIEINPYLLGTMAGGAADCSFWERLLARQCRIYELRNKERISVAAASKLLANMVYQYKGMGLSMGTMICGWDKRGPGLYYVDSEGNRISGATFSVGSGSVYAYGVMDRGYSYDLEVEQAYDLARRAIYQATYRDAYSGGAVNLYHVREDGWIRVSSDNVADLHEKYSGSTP
Action: inhibitor

`C=C(NC(=O)C(=C)NC(=O)c1csc(C2=NC3c4csc(n4)C4NC(=O)c5csc(n5)C(C(C)(O)C(C)O)NC(=O)C5CSC(=N5)C(=CC)NC(=O)C(C(C)O)NC(=O)c5csc(n5)C3(CC2)NC(=O)C(C)NC(=O)C(=C)NC(=O)C(=CC)NC(=O)C(C(C)CC)NC2C=Cc3c(C(C)O)cc(nc3C2O)C(=O)OC4C)n1)C(N)=O` (centres unmarked) has an IC50 of 3100 ± 300 nM (chymotrypsin-like activity; purified human 20S proteasome; 37 °C, 15 min preincubation, with: Suc-Leu-Leu-Val-Tyr-AMC).
`CC(C)C[C@@H](/C=C/S(C)(=O)=O)NC(=O)[C@H](CC(C)C)NC(=O)[C@@H](NC(=O)N[C@H](C(=O)OC(C)(C)C)C(C)C)C(C)C` has an IC50 of 230 nM (active site labelling, probe competition gel; HEK-293T cell lysate; 1 h, 37 °C, with: activity-based probe 0.5 µM).
For `C=C(NC(=O)C(=C)NC(=O)c1csc(C2=NC3c4csc(n4)C4NC(=O)c5csc(n5)C(C(C)(O)C(C)O)NC(=O)C5CSC(=N5)C(=CC)NC(=O)C(C(C)O)NC(=O)c5csc(n5)C3(CC2)NC(=O)C(C)NC(=O)C(=C)NC(=O)C(Cc2ccccc2)NC(=O)C(C(C)CC)NC2C=Cc3c(C(C)O)cc(nc3C2O)C(=O)OC4C)n1)C(N)=O` (centres unmarked), the IC50 was 960 ± 30 nM (chymotrypsin-like activity; purified human 20S proteasome; 37 °C, 15 min preincubation, with: Suc-Leu-Leu-Val-Tyr-AMC).
For `C=C(NC(=O)C(=C)NC(=O)c1csc(C2=NC3c4csc(n4)C4NC(=O)c5csc(n5)C(C(C)(O)C(C)O)NC(=O)C5CSC(=N5)C(=CC)NC(=O)C(C(C)O)NC(=O)c5csc(n5)C3(CC2)NC(=O)C(Cc2c[nH]c3ccccc23)NC(=O)C(=C)NC(=O)C(C)NC(=O)C(C(C)CC)NC2C=Cc3c(C(C)O)cc(nc3C2O)C(=O)OC4C)n1)C(N)=O` (centres unmarked), the IC50 was > 190 nM (chymotrypsin-like activity; purified 20S proteasome; 15 min preincubation, 37 °C, with: Suc-Leu-Leu-Val-Tyr-AMC substrate).
With `O=C(N[C@@H](Cc1coc2ccccc12)B(O)O)[C@@H]1C[C@H]2CC[C@@H]1O2` the IC50 was 13700 nM (enzyme activity; human whole blood; 2 h, 37 °C, with: Suc-LLVY-R110).
With `CCCCCCCCC/C=C/C=C/C(=O)N[C@H](C(=O)N[C@H]1C[C@@H](O)CCNC(=O)/C=C/[C@H](C)NC1=O)[C@@H](C)O` the IC50 was 2.9 nM (chymotrypsin-like activity; human constitutive proteasome; with: Suc-LLVY-AMC).
For `C=C(NC(=O)C(=C)NC(=O)c1csc(C2=NC3c4csc(n4)C4NC(=O)c5csc(n5)C(C(C)(O)C(C)O)NC(=O)C5CSC(=N5)C(=CC)NC(=O)C(C(C)O)NC(=O)c5csc(n5)C3(CC2)NC(=O)C(C)NC(=O)C(=C)NC(=O)C(CCSC)NC(=O)C(C(C)CC)NC2C=Cc3c(C(C)O)cc(nc3C2O)C(=O)OC4C)n1)C(N)=O` (centres unmarked), the IC50 was 620 ± 10 nM (chymotrypsin-like activity; purified human 20S proteasome; 37 °C, 15 min preincubation, with: Suc-Leu-Leu-Val-Tyr-AMC).
`C=C(NC(=O)C(=C)NC(=O)c1csc(C2=NC3c4csc(n4)C4NC(=O)c5csc(n5)C(C(C)(O)C(C)O)NC(=O)C5CSC(=N5)C(=CC)NC(=O)C(C(C)O)NC(=O)c5csc(n5)C3(CC2)NC(=O)C(CCSC)NC(=O)C(=C)NC(=O)C(C)NC(=O)C(C(C)CC)NC2C=Cc3c(C(C)O)cc(nc3C2O)C(=O)OC4C)n1)C(N)=O` (centres unmarked) has an IC50 of > 590 nM (chymotrypsin-like activity; purified 20S proteasome; 15 min preincubation, 37 °C, with: Suc-Leu-Leu-Val-Tyr-AMC substrate).
For `C#CCCNC(=O)[C@@H](NC(=O)N[C@H](C(=O)N[C@H]1/C=C/CCNC(=O)/C=C/[C@H](C(C)C)NC1=O)C(C)C)C(C)C`, the IC50 was 10 nM (chymotrypsin-like activity; human constitutive proteasome; with: Suc-LLVY-AMC).
For `CC(C)C[C@@H](/C=C/S(C)(=O)=O)NC(=O)[C@H](CC(C)C)NC(=O)[C@@H](NC(=O)N[C@H](C(=O)NCc1ccccc1)C(C)C)C(C)C`, the IC50 was 170 nM (active site labelling, probe competition gel; HEK-293T cell lysate; 1 h, 37 °C, with: activity-based probe 0.5 µM).
For `C=C(NC(=O)C(=C)NC(=O)c1csc(C2=NC3c4csc(n4)C4NC(=O)c5csc(n5)C(C(C)(O)C(C)O)NC(=O)C5CSC(=N5)C(=CC)NC(=O)C(C(C)O)NC(=O)c5csc(n5)C3(CC2)NC(=O)C(C(C)C)NC(=O)C(=C)NC(=O)C(C)NC(=O)C(C(C)CC)NC2C=Cc3c(C(C)O)cc(nc3C2O)C(=O)OC4C)n1)C(N)=O` (centres unmarked), the IC50 was 490 ± 30 nM (chymotrypsin-like activity; purified 20S proteasome; 15 min preincubation, 37 °C, with: Suc-Leu-Leu-Val-Tyr-AMC substrate).

Repeated from above:
For `C=C(NC(=O)C(=C)NC(=O)c1csc(C2=NC3c4csc(n4)C4NC(=O)c5csc(n5)C(C(C)(O)C(C)O)NC(=O)C5CSC(=N5)C(=CC)NC(=O)C(C(C)O)NC(=O)c5csc(n5)C3(CC2)NC(=O)C(Cc2c[nH]c3ccccc23)NC(=O)C(=C)NC(=O)C(C)NC(=O)C(C(C)CC)NC2C=Cc3c(C(C)O)cc(nc3C2O)C(=O)OC4C)n1)C(N)=O` (centres unmarked), the IC50 was > 190 nM (chymotrypsin-like activity; purified 20S proteasome; 15 min preincubation, 37 °C, with: Suc-Leu-Leu-Val-Tyr-AMC substrate).
